Assay results pooled from the literature.
± gives the spread as reported.
U2AF2: U2AF2 148-342 (Homo sapiens, UniProt P26368)
Sequence of UniProt P26368 (whole entry, looked up): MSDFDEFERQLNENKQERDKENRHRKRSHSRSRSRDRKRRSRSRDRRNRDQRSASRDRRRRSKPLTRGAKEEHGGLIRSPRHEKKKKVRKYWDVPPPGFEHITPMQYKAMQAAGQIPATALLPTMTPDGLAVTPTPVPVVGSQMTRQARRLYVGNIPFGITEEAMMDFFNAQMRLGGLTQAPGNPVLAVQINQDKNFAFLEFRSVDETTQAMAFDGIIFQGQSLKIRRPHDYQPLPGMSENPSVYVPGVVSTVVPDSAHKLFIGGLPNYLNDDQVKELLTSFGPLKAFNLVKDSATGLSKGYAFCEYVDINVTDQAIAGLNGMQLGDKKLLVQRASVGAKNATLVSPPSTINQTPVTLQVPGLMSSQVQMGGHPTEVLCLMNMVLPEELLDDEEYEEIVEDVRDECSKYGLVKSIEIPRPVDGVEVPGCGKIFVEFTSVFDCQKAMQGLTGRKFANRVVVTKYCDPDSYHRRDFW
B1: human calpain-1; sequence looked up; chain SEEIITPVYCTGVSAQVQKQRARELGLGRHENAIKYLGQDYEQLRVRCLQSGTLFRDEAFPPVPQSLGYKDLGPNSSKTYGIKWKRPTELLSNPQFIVDGATRTDICQGALGDCWLLAAIASLTLNDTLLHRVVPHGQSFQNGYAGIFHFQLWQFGEWVDVVVDDLLPIKDGKLVFVHSAEGNEFWSALLEKAYAKVNGSYEALSGGSTSEGFEDFTGGVTEWYELRKAPSDLYQIILKALERGSLLGCSIDISSVLDMEAITFKKLVKGHAYSVTGAKQVNYRGQVVSLIRMRNPWGEVEWTGAWSDSSSEWNNVDPYERDQLRVKMEDGEFWMSFRDFMREFTRLEICNLTPDALKSRTIRKWNTTLYEGTWRRGSTAGGCRNYPATFWVNPQFKIRLDETDDPDDYGDRESGCSFVLALMQKHRRRERRFGRDMETIGFAVYEVPPELVGQPAVHLKRDFFLANASRARSEQFINLREVSTRFRLPPGEYVVVPSTFEPNKEGDFVLRFFSEKSAGTVELDDQIQANLPDEQVLSEEEIDENFKALFRQLAGEDMEISVKELRTILNRIISKHKDLRTKGFSLESCRSMVNLMDRDGNGKLGLVEFNILWNRIRNYLSIFRKFDLDKSGSMSAYEMRMAIESAGFKLNKKLYELIITRYSEPDLAVDFDNFVCCLVRLETMFRFFKTLDTDLDGVVTFDLFKWLQLTMFA
B2: human IGHG3; sequence looked up; chain ASTKGPSVFPLAPCSRSTSGGTAALGCLVKDYFPEPVTVSWNSGALTSGVHTFPAVLQSSGLYSLSSVVTVPSSSLGTQTYTCNVNHKPSNTKVDKRVELKTPLGDTTHTCPRCPEPKSCDTPPPCPRCPEPKSCDTPPPCPRCPEPKSCDTPPPCPRCPAPELLGGPSVFLFPPKPKDTLMISRTPEVTCVVVDVSHEDPEVQFKWYVDGVEVHNAKTKPREEQYNSTFRVVSVLTVLHQDWLNGKEYKCKVSNKALPAPIEKTISKTKGQPREPQVYTLPPSREEMTKNQVSLTCLVKGFYPSDIAVEWESSGQPENNYNTTPPMLDSDGSFFLYSKLTVDKSRWQQGNIFSCSVMHEALHNRFTQKSLSLSPELQLEESCAEAQDGELDGLWTTITIFITLFLLSVCYSATVTFFKVKWIFSSVVDLKQTIIPDYRNMIGQGA
B3: human FOXK1; sequence looked up; chain AEVGEDSGARALLALRSAPCSPVLCAAAAAAAFPAAAPPPAPAQPQPPPGPPPPPPPPLPPGAIAGAGSSGGSSGVSGDSAVAGAAPALVAAAAASVRQSPGPALARLEGREFEFLMRQPSVTIGRNSSQGSVDLSMGLSSFISRRHLQLSFQEPHFYLRCLGKNGVFVDGAFQRRGAPALQLPKQCTFRFPSTAIKIQFTSLYHKEEAPASPLRPLYPQISPLKIHIPEPDLRSMVSPVPSPTGTISVPNSCPASPRGAGSSSYRFVQNVTSDLQLAAEFAAKAASEQQADTSGGDSPKDESKPPFSYAQLIVQAISSAQDRQLTLSGIYAHITKHYPYYRTADKGWQNSIRHNLSLNRYFIKVPRSQEEPGKGSFWRIDPASEAKLVEQAFRKRRQRGVSCFRTPFGPLSSRSAPASPTHPGLMSPRSGGLQTPECLSREGSPIPHDPEFGSKLASVPEYRYSQSAPGSPVSAQPVIMAVPPRPSSLVAKPVAYMPASIVTSQQPAGHAIHVVQQAPTVTMVRVVTTSANSANGYILTSQGAAGGSHDAAGAAVLDLGSEARGLEEKPTIAFATIPAAGGVIQTVASQMAPGVPGHTVTILQPATPVTLGQHHLPVRAVTQNGKHAVPTNSLAGNAYALTSPLQLLATQASSSAPVVVTRVCEVGPKEPAAAVAATATTTPATATTASASASSTGEPEVKRSRVEEPSGAVTTPAGVIAAAGPQGPGTGE
B4: human calnexin; sequence looked up; chain HDGHDDDVIDIEDDLDDVIEEVEDSKPDTTAPPSSPKVTYKAPVPTGEVYFADSFDRGTLSGWILSKAKKDDTDDEIAKYDGKWEVEEMKESKLPGDKGLVLMSRAKHHAISAKLNKPFLFDTKPLIVQYEVNFQNGIECGGAYVKLLSKTPELNLDQFHDKTPYTIMFGPDKCGEDYKLHFIFRHKNPKTGIYEEKHAKRPDADLKTYFTDKKTHLYTLILNPDNSFEILVDQSVVNSGNLLNDMTPPVNPSREIEDPEDRKPEDWDERPKIPDPEAVKPDDWDEDAPAKIPDEEATKPEGWLDDEPEYVPDPDAEKPEDWDEDMDGEWEAPQIANPRCESAPGCGVWQRPVIDNPNYKGKWKPPMIDNPSYQGIWKPRKIPNPDFFEDLEPFRMTPFSAIGLELWSMTSDIFFDNFIICADRRIVDDWANDGWGLKKAADGAAEPGVVGQMIEAAEERPWLWVVYILTVALPVFLVILFCCSGKKQTSGMEYKKTDAPQPDVKEEEEEKEEEKDKGDEEEEGEEKLEEKQKSDAEEDGGTVSQEEEDRKPKAEEDEILNRSPRNRKPRRE
Sequence of UniProt P13393 (whole entry, looked up): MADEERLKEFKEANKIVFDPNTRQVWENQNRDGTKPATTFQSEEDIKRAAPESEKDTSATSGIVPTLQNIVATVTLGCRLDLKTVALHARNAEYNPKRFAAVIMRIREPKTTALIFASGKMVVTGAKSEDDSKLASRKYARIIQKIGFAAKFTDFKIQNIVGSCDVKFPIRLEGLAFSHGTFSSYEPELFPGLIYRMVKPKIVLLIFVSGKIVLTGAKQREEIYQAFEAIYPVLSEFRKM
Sequence of UniProt Q00535 (whole entry, looked up): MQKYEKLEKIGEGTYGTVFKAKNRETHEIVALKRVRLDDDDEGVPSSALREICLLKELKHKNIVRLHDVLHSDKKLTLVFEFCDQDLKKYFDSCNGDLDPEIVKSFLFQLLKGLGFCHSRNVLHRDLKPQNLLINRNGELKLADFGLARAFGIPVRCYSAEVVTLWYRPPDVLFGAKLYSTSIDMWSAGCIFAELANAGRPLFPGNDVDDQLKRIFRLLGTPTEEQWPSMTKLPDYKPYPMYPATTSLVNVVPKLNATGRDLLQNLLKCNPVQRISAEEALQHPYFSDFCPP

| Molecule | tested on | test | system | setting | scale | measurement | value |
| --- | --- | --- | --- | --- | --- | --- | --- |
| AUUCUUUUU (ssRNA) | U2AF2 | sequencing of bound RNA | RNA | motif only |  | Kd | 9.41 µM |
| GSGAGRETEV | construct, MBP fusion, human SCRIB, PDZ 3-4 | automated holdup | peptide, purified PDZ protein | concentration not given, unit not given | relative to: biotin control resin, higher = stronger binding | binding intensity | 0.517 |
| B1 (human calpain-1) | CYB5R4 knockout human cells | PP4 interaction, 3xFLAG-PP4C IP-MS |  | concentration not given | relative to: CYB5R4 KO over parental | log2 fold change | 0.3 |
| GSGAGICTIV | construct, MBP fusion, human SCRIB, PDZ 3-4 | surface plasmon resonance | peptide | concentration not given | higher = stronger binding | normalised SPR binding response | 6.6 normalised RU |
| maraviroc |  | Western blot | HIV-infected mice, somatosensory cortex | i.p., 120 mg/kg twice daily, 3 weeks post infection | relative to: HIV-infected untreated mice, decrease | protein level | 2.91 fold |
| AGCUUGAGU (ssRNA) | U2AF2 | sequencing of bound RNA | RNA | motif only |  | Kd | 5.75 µM |
| colistin | Acinetobacter baumannii | broth microdilution | clinical isolate RKI-No_32/16 |  |  | MIC | 2 µg/mL |
| GSGAGIATEV | construct, MBP fusion, human SCRIB, PDZ 3-4 | automated holdup | peptide, crude extract | concentration not given, uncorrected, unit not given | relative to: biotin control resin, higher = stronger binding | binding intensity | 0.741 |
| B2 (human IGHG3) | CYB5R4 knockout human cells | PP4 interaction, 3xFLAG-PP4C IP-MS |  | concentration not given | relative to: CYB5R4 KO over parental | log2 fold change | 3.24 |
| YLDPLQPEY | Jurkat expressing engineered TCR | NFAT-eGFP reporter, fluorescence microscopy | peptide | concentration not given, HLA-A*01:01 on EL4 cells |  | GFP-positive cells | 0.748% |
| B3 (human FOXK1) | CYB5R4 knockout human cells | PP4 interaction, 3xFLAG-PP4C IP-MS |  | concentration not given | relative to: CYB5R4 KO over parental | log2 fold change | -1.5 |
| KEAFWDRCLSVGNLMSSKMLQINA | Cyclin-dependent kinase 5, with p25 (CDK5, Homo sapiens, UniProt Q00535) | phosphotransferase activity, radiometric | peptide | concentration not given, 10% DMSO, with: histone substrate | relative to: p5-WT peptide | activity change | 35% |
| Peginesatide | UT7/EPO | tyrosine phosphorylation, LC-MS/MS phosphoproteomics, GluC, item: GAB3 tyrosine 183 |  | 10 nM, 15 min, with: 10 U/mL EPO | relative to: vehicle | phosphorylation level | 9.2 fold |
| MTVCNASQRQAHAQATAVSL | Calu-1 lung mucoepidermoid carcinoma | phage binding output/input | peptide |  | relative to: control phage | selectivity ratio | 2.8 ± 0.48 |
| PMESGICTIV | construct, MBP fusion, human SCRIB, PDZ 3-4 | automated holdup | peptide, purified PDZ protein | concentration not given, unit not given | relative to: biotin control resin, higher = stronger binding | binding intensity | 0.0266 |
| B4 (human calnexin) | PP6C (human) | co-immunoprecipitation, IP-MS | CYB5R4 knockout cells | concentration not given | relative to: CYB5R4 knockout over parental | log2 fold change | -0.07 |
| heparin sodium |  |  | human | intravenous infusion, 8 IU/kg/h, day 1 to 6 |  | ACT Emax | 128 s |
| ATP synthase subunit beta, human | CYB5R4 knockout human cells | PP4 interaction, 3xFLAG-PP4C IP-MS |  | concentration not given | relative to: CYB5R4 KO over parental | log2 fold change | -0.07 |
| TGGATCAATCGTATAAAGAGAATTCCTGGTATGGATCAAGTCAATCGGTCC (dsDNA; 5'-amino-C6 primer) | SPT15 full length assumed (Saccharomyces cerevisiae, UniProt P13393) | array | double-stranded DNA, one strand shown | TBP alone |  | Kd | 0.00423 ± 0.0004 µM |

For quick reference, copied from above:
| Molecule | tested on | test | system | setting | scale | measurement | value |
| --- | --- | --- | --- | --- | --- | --- | --- |
| B3 (human FOXK1) | CYB5R4 knockout human cells | PP4 interaction, 3xFLAG-PP4C IP-MS |  | concentration not given | relative to: CYB5R4 KO over parental | log2 fold change | -1.5 |
| TGGATCAATCGTATAAAGAGAATTCCTGGTATGGATCAAGTCAATCGGTCC (dsDNA; 5'-amino-C6 primer) | SPT15 full length assumed (Saccharomyces cerevisiae, UniProt P13393) | array | double-stranded DNA, one strand shown | TBP alone |  | Kd | 0.00423 ± 0.0004 µM |
| maraviroc |  | Western blot | HIV-infected mice, somatosensory cortex | i.p., 120 mg/kg twice daily, 3 weeks post infection | relative to: HIV-infected untreated mice, decrease | protein level | 2.91 fold |
